Measured values collected from several papers.
Each line is one published result; not all experiments were run side by side. Values joined by “and” are separate records of one study, mostly repeats; a detail may differ. Numbers after ± are the reported error.
B1: AKAP8L; sequence looked up; chain MSYTGFVQGSETTLQSTYSDTSAQPTCDYGYGTWNSGTNRGYEGYGYGYGYGQDNTTNYGYGMATSHSWEMPSSDTNANTSASGSASADSVLSRINQRLDMVPHLETDMMQGGVYGSGGERYDSYESCDSRAVLSERDLYRSGYDYSELDPEMEMAYEGQYDAYRDQFRMRGNDTFGPRAQGWARDARSGRPMASGYGRMWEDPMGARGQCMSGASRLPSLFSQNIIPEYGMFQGMRGGGAFPGGSRFGFGFGNGMKQMRRTWKTWTTADFRTKKKKRKQGGSPDEPDSKATRTDCSDNSDSDNDEGTEGEATEGLEGTEAVEKGSRVDGEDEEGKEDGREEGKEDPEKGALTTQDENGQTKRKLQAGKKSQDKQKKRQRDRMVERIQFVCSLCKYRTFYEDEMASHLDSKFHKEHFKYVGTKLPKQTADFLQEYVTNKTKKTEELRKTVEDLDGLIQQIYRDQDLTQEIAMEHFVKKVEAAHCAACDLFIPMQFGIIQKHLKTMDHNRNRRLMMEQSKKSSLMVARSILNNKLISKKLERYLKGENPFTDSPEEEKEQEEAEGGALDEGAQGEAAGISEGAEGVPAQPPVPPEPAPGAVSPPPPPPPEEEEEGAVPLLGGALQRQIRGIPGLDVEDDEEGGGGAP
B2: AIFM2 (ferroptosis suppressor protein 1); sequence looked up; chain GSQVSVESGALHVVIVGGGFGGIAAASQLQALNVPFMLVDMKDSFHHNVAALRASVETGFAKKTFISYSVTFKDNFRQGLVVGIDLKNQMVLLQGGEALPFSHLILATGSTGPFPGKFNEVSSQQAAIQAYEDMVRQVQRSRFIVVVGGGSAGVEMAAEIKTEYPEKEVTLIHSQVALADKELLPSVRQEVKEILLRKGVQLLLSERVSNLEELPLNEYREYIKVQTDKGTEVATNLVILCTGIKINSSAYRKAFESRLASSGALRVNEHLQVEGHSNVYAIGDCADVRTPKMAYLAGLHANIAVANIVNSVKQRPLQAYKPGALTFLLSMGRNDGVGQISGFYVGRLMVRLTKSRDLFVSTSWKTMRQSPP
B3: CAND1; sequence looked up; chain ASASYHISNLLEKMTSSDKDFRFMATNDLMTELQKDSIKLDDDSERKVVKMILKLLEDKNGEVQNLAVKCLGPLVSKVKEYQVETIVDTLCTNMLSDKEQLRDISSIGLKTVIGELPPASSGSALAANVCKKITGRLTSAIAKQEDVSVQLEALDIMADMLSRQGGLLVNFHPSILTCLLPQLTSPRLAVRKRTIIALGHLVMSCGNIVFVDLIEHLLSELSKNDSMSTTRTYIQCIAAISRQAGHRIGEYLEKIIPLVVKFCNVDDDELREYCIQAFESFVRRCPKEVYPHVSTIINICLKYLTYDPNYNYDDEDEDENAMDADGGDDDDQGSDDEYSDDDDMSWKVRRAAAKCLDAVVSTRHEMLPEFYKTVSPALISRFKEREENVKADVFHAYLSLLKQTRPVQSWLCDPDAMEQGETPLTMLQSQVPNIVKALHKQMKEKSVKTRQCCFNMLTELVNVLPGALTQHIPVLVPGIIFSLNDKSSSSNLKIDALSCLYVILCNHSPQVFHPHVQALVPPVVACVGDPFYKITSEALLVTQQLVKVIRPLDQPSSFDATPYIKDLFTCTIKRLKAADIDQEVKERAISCMGQIICNLGDNLGSDLPNTLQIFLERLKNEITRLTTVKALTLIAGSPLKIDLRPVLGEGVPILASFLRKNQRALKLGTLSALDILIKNYSDSLTAAMIDAVLDELPPLISESDMHVSQMAISFLTTLAKVYPSSLSKISGSILNELIGLVRSPLLQGGALSAMLDFFQALVVTGTNNLGYMDLLRMLTGPVYSQSTALTHKQSYYSIAKCVAALTRACPKEGPAVVGQFIQDVKNSRSTDSIRLLALLSLGEVGHHIDLSGQLELKSVILEAFSSPSEEVKSAASYALGSISVGNLPEYLPFVLQEITSQPKRQYLLLHSLKEIISSASVVGLKPYVENIWALLLKHCECAEEGTRNVVAECLGKLTLIDPETLLPRLKGYLISGSSYARSSVVTAVKFTISDHPQPIDPLLKNCIGDFLKTLEDPDLNVRRVALVTFNSAAHNKPSLIRDLLDTVLPHLYNETKVRKELIREVEMGPFKHTVDDGLDIRKAAFECMYTLLDSCLDRLDIFEFLNHVEDGLKDHYDIKMLTFLMLVRLSTLCPSAVLQRLDRLVEPLRATCTTKVKANSVKQEFEKQDELKRSAMRAVAALLTIPEAEKSPLMSEFQSQISSNPELAAIFESIQKDSSSTNLESMDTS
B4: CIZ1; sequence looked up; chain MFSQQQQQQLQQQQQQLQQLQQQQLQQQQLQQQQLLQLQQLLQQSPPQAPLPMAVSRGLPPQQPQQPLLNLQGTNSASLLNGSMLQRALLLQQLQGLDQFAMPPATYDTAGLTMPTATLGNLRGYGMASPGLAAPSLTPPQLATPNLQQFFPQATRQSLLGPPPVGVPMNPSQFNLSGRNPQKQARTSSSTTPNRKDSSSQTMPVEDKSDPPEGSEEAAEPRMDTPEDQDLPPCPEDIAKEKRTPAPEPEPCEASELPAKRLRSSEEPTEKEPPGQLQVKAQPQARMTVPKQTQTPDLLPEALEAQVLPRFQPRVLQVQAQVQSQTQPRIPSTDTQVQPKLQKQAQTQTSPEHLVLQQKQVQPQLQQEAEPQKQVQPQVQPQAHSQGPRQVQLQQEAEPLKQVQPQVQPQAHSQPPRQVQLQLQKQVQTQTYPQVHTQAQPSVQPQEHPPAQVSVQPPEQTHEQPHTQPQVSLLAPEQTPVVVHVCGLEMPPDAVEAGGGMEKTLPEPVGTQVSMEEIQNESACGLDVGECENRAREMPGVWGAGGSLKVTILQSSDSRAFSTVPLTPVPRPSDSVSSTPAATSTPSKQALQFFCYICKASCSSQQEFQDHMSEPQHQQRLGEIQHMSQACLLSLLPVPRDVLETEDEEPPPRRWCNTCQLYYMGDLIQHRRTQDHKIAKQSLRPFCTVCNRYFKTPRKFVEHVKSQGHKDKAKELKSLEKEIAGQDEDHFITVDAVGCFEGDEEEEEDDEDEEEIEVEEELCKQVRSRDISREEWKGSETYSPNTAYGVDFLVPVMGYICRICHKFYHSNSGAQLSHCKSLGHFENLQKYKAAKNPSPTTRPVSRRCAINARNALTALFTSSGRPPSQPNTQDKTPSKVTARPSQPPLPRRSTRLKT
B5: CSRP2; sequence looked up; chain MPVWGGGNKCGACGRTVYHAEEVQCDGRSFHRCCFLCMVCRKNLDSTTVAIHDEEIYCKSCYGKKYGPKGYGYGQGAGTLNMDRGERLGIKPESVQPHRPTTNPNTSKFAQKYGGAEKCSRCGDSVYAAEKIIGAGKPWHKNCFRCAKCGKSLESTTLTEKEGEIYCKGCYAKNFGPKGFGYGQGAGALVHAQ
B6: desmoglein-1; sequence looked up; chain EWIKFAAACREGEDNSKRNPIAKIHSDCAANQQVTYRISGVGIDQPPYGIFVINQKTGEINITSIVDREVTPFFIIYCRALNSMGQDLERPLELRVRVLDINDNPPVFSMATFAGQIEENSNANTLVMILNATDADEPNNLNSKIAFKIIRQEPSDSPMFIINRNTGEIRTMNNFLDREQYGQYALAVRGSDRDGGADGMSAECECNIKILDVNDNIPYMEQSSYTIEIQENTLNSNLLEIRVIDLDEEFSANWMAVIFFISGNEGNWFEIEMNERTNVGILKVVKPLDYEAMQSLQLSIGVRNKAEFHHSIMSQYKLKASAISVTVLNVIEGPVFRPGSKTYVVTGNMGSNDKVGDFVATDLDTGRPSTTVRYVMGNNPADLLAVDSRTGKLTLKNKVTKEQYNMLGGKYQGTILSIDDNLQRTCTGTININIQSFGNDDRTNTEPNTKITTNTGRQESTSSTNYDTSTTSTDSSQVYSSEPGNGAKDLLSDNVHFGPAGIGLLIMGFLVLGLVPFLMICCDCGGAPRSAAGFEPVPECSDGAIHSWAVEGPQPEPRDITTVIPQIPPDNANIIECIDNSGVYTNEYGGREMQDLGGGERMTGFELTEGVKTSGMPEICQEYSGTLRRNSMRECREGGLNMNFMESYFCQKAYAYADEDEGRPSNDCLLIYDIEGVGSPAGSVGCCSFIGEDLDDSFLDTLGPKFKKLADISLGKESYPDLDPSWPPQSTEPVCLPQETEPVVSGHPPISPHFGTTTVISESTYPSGPGVLHPKPILDPLGYGNVTVTESYTTSDTLKPSVHVHDNRPASNVVVTERVVGPISGADLHGMLEMPDLRDGSNVIVTERVIAPSSSLPTSLTIHHPRESSNVVVTERVIQPTSGMIGSLSMHPELANAHNVIVTERVVSGAGVTGISGTTGISGGIGSSGLVGTSMGAGSGALSGAGISGGGIGLSSLGGTASIGHMRSSSDHHFNQTIGSASPSTARSRITKYSTVQYSK
B7: C1orf122 protein; sequence looked up; chain MEWGPGSDWSRGEAAGVDRGKAGLGLGGRPPPQPPREERAQQLLDAVEQRQRQLLDTIAACEEMLRQLGRRRPEPAGGGNVSAKPGAPPQPAVSARGGFPKDAGDGAAEP

| Substance | target or system | assay | system | setting | how to read | quantity | result |
| --- | --- | --- | --- | --- | --- | --- | --- |
| FINTKEYKN | Mamu-B*08301 MHC class I | peptide binding | peptide, Chinese rhesus macaque | – | – | IC50 | > 20 µM |
| nonaarginine | PorA peptide pore | peptide binding, planar bilayer single-channel recording | – | 0.5 µM, pH 7.4, -10 mV, cis side, 150 mM KCl | – | koff | 11.1 ± 1 s⁻¹ |
| B1 (AKAP8L) | – | peptide binding, SILAC pull-down | – | concentration not given | reference: non-acetylated over acetylated NIT1 peptide | log2 fold change | -0.27 |
| caspofungin | Aspergillus fumigatus | – | wild type | concentration not given | reference: untreated control | radial growth ratio | 0.35 and 0.366 and 0.373 |
| Polymyxin B | Escherichia coli | broth microdilution | E27 clinical isolate | 20 h | – | MIC | 2 µg/mL |
| AQAKINAKANEGR (BAG2) | – | peptide binding, SILAC pull-down | – | concentration not given | reference: non-acetylated over acetylated NIT1 peptide | log2 fold change | 0.302 |
| EVVPGFQAL | Mamu-A1*02601 MHC class I | peptide binding | peptide, Chinese rhesus macaque | – | – | IC50 | > 20 µM |
| insulin human | – | measured: DLG4 | mouse, uninfected, brain | ip, dose not given, added: insulin | reference: PBS-treated | mRNA fold change | 1.09 |
| B2 (AIFM2) | – | peptide binding, SILAC pull-down | – | concentration not given | reference: non-acetylated over acetylated NIT1 peptide | log2 fold change | 0.512 |
| lead | non-cancerous | CCK-8 | – | 2.5 µM, 24 h, unit not given | reference: untreated control | viability | 0.57 |
| cisplatin | HeLa | cell growth | – | – | – | IC50 | 4 ± 1 µM |
| KLPQLCTEV | HN-30 (HLA-A2− HPV+) | 111In release | peptide | concentration not given, 16 h, E:T 25:1 IVS 5, added: peptide-generated T-cell line | – | specific lysis | 2.1% |
| hexaarginine | PorA peptide pore | peptide binding, planar bilayer single-channel recording | – | 0.5 µM, pH 7.4, -10 mV, cis side, 150 mM KCl | – | kon | 3.21e+07 ± 3e+06 M⁻¹ s⁻¹ |
| B3 (CAND1) | – | peptide binding, SILAC pull-down | – | concentration not given | reference: non-acetylated over acetylated NIT1 peptide | log2 fold change | 3.32 |
| aspterric acid | – | hypocotyl length | Arabidopsis thaliana Col-0 seeds | 12.5 µg/mL | – | inhibition | 95.2% |
| B4 (CIZ1) | – | peptide binding, SILAC pull-down | – | concentration not given | reference: non-acetylated over acetylated NIT1 peptide | log2 fold change | -0.421 |
| pertussis toxin | – | immunostaining, measured: p-PKA | humanized UT (+/h+) mice, SAH model, Macrophages, F4/80+, peri-MCA | dose not given | – | phospho-PKA level | 17.2 MFI and 19.2 MFI and 17.3 MFI |
| GWTLNSAGYLLGPHAVDNHRSFNDKHGFT-NH2 (C-amide) | – | RT-qPCR, measured: Il1a | peptide, mouse, DSS-induced colitis, colon | ip, 3 µM, 3% DSS, unit not given | reference: Gapdh | mRNA level | 0.879 and 0.322 and 1 and 0.902 and 0.43 |
| B5 (CSRP2) | – | peptide binding, SILAC pull-down | – | concentration not given | reference: non-acetylated over acetylated NIT1 peptide | log2 fold change | -0.545 |
| GWTLNSAGYLLGPRRIDHLLMIKEMPIARGREEAPGA / YAVDNHRSFNDKHGFT-NH2 (C-amide) | – | RT-qPCR, measured: Tjp1 | mouse, DSS-induced colitis, colon | ip, 3 µM, 3% DSS, unit not given | reference: Gapdh | mRNA level | 4.85 and 4.45 and 7.31 and 5.73 |
| thiostrepton | Enterococcus faecium | – | vancomycin-susceptible | – | – | MIC | 0.06 µg/mL |
| B6 (desmoglein-1) | – | peptide binding, SILAC pull-down | – | concentration not given | reference: non-acetylated over acetylated NIT1 peptide | log2 fold change | -0.689 |
| TLHEYMLDL | HPV16 E7-specific T-cell line | ELISA | peptide, supernatant | concentration not given, 24 h, added: peptide-pulsed autologous B cells | – | IFN-γ release | 475 pg/mL |
| colistin | Aspergillus fumigatus | – | conidia | 10 µM, added: caspofungin 0.2 µg/mL | reference: caspofungin alone | CFU relative to caspofungin alone | 2.21 and 1.51 and 2.05 |
| B7 (C1orf122 protein) | – | peptide binding, SILAC pull-down | – | concentration not given | reference: non-acetylated over acetylated NIT1 peptide | log2 fold change | 0.941 |
| NQRRQRKRR | Mamu-B*08301 MHC class I | peptide binding | peptide, Chinese rhesus macaque | – | – | IC50 | > 20 µM |
| TLHEYMLDV | ASPC1 (HLA-A2− HPV−) | 111In release | peptide | concentration not given, 16 h, E:T 25:1, IVS 5, added: peptide-generated T-cell line | – | specific lysis | 0.6% |
| (−)-antroquinonol A | ASPC1 | cytotoxicity, MTS | – | 72 h | – | IC50 | > 25 µM |
| CEMDGQCKRDLKCCMGMCGKSCVSPVKA | p38 MAPK (mouse) | Western blot | peptide, RAW264.7 | concentration not given, 6 h pretreatment, added: LPS for 30 min | – | p-p38/p38 ratio | 0.37 ± 0.05 |
| KLPQLCTEL | HN-4 (HLA-A2+ HPV+) | 111In release | peptide | concentration not given, 16 h, E:T 25:1 IVS 5, added: peptide-generated T-cell line | – | specific lysis | 21.2% |
